Measurements of several laboratories.
Lines come from different studies, so protocols differ.
Organism: Escherichia coli

`CC(C)[C@H](N)C(=O)N[C@@H](CC(=O)O)C(=O)N[C@@H](CCCCN)C(=O)N[C@@H](CCCCN)C(=O)N1CCC[C@H]1C(=O)N[C@@H](Cc1ccc(O)cc1)C(=O)N[C@@H](CCCNC(=N)N)C(=O)N1CCC[C@H]1C(=O)N[C@@H](CCCNC(=N)N)C(=O)N1CCC[C@H]1C(=O)N[C@@H](CCCNC(=N)N)C(=O)N1CCC[C@H]1C(=O)N1CCC[C@H]1C(=O)N[C@@H](CCCNC(=N)N)C(=O)N[C@@H](CCCNC(=N)N)C(N)=O` gave an MIC of 1 mg/L (broth microdilution; MRE600; 16 h, 37 °C, 25% Mueller-Hinton broth).
With `CC[C@H](C)[C@H](NC(=O)CNC(=O)[C@H](CC(=O)O)NC(=O)[C@H](CCCNC(=N)N)NC(=O)[C@@H](NC(=O)[C@H](CC(N)=O)NC(=O)[C@H](CCCNC(=N)N)NC(=O)CNC(=O)[C@@H](NC(=O)[C@H](CCCCN)NC(=O)[C@H](CCC(=O)O)NC(=O)[C@@H](NC(=O)[C@H](CCCCN)NC(=O)[C@H](CCCCN)NC(=O)[C@H](C)NC(=O)[C@@H](NC(=O)[C@H](CCCCN)NC(=O)[C@H](C)NC(=O)[C@@H](N)CCCNC(=N)N)[C@@H](C)CC)[C@@H](C)CC)C(C)C)C(C)C)C(=O)N[C@H](C(=O)N[C@@H](CCCCN)C(=O)N[C@@H](C)C(=O)NCC(=O)N1CCC[C@H]1C(=O)N[C@@H](C)C(=O)N[C@H](C(=O)N[C@@H](C)C(=O)N[C@H](C(=O)N[C@H](C(=O)NCC(=O)N[C@@H](CCC(N)=O)C(=O)N[C@@H](C)C(=O)N[C@@H](C)C(=O)N[C@H](C(=O)N[C@H](C(=O)N[C@H](C(=O)N[C@@H](CCCCN)C(N)=O)C(C)C)C(C)C)[C@@H](C)O)C(C)C)C(C)C)C(C)C)[C@@H](C)CC` the MIC was 8 µM (K1 ATCC 700973, Mueller-Hinton broth; 16 h, 37 °C; growth inhibition over 99%).
With `CC(C)Oc1c(NC(=O)c2ccc(N3C(=O)C[C@H](NC(=O)c4ccc(NC(=O)c5ccc(C#N)cc5)cc4)C3=O)cc2)ccc(C(=O)N/N=C/c2ccnn2C)c1O` the MIC was 0.1 mg/L (BW25113; 18 h, 37 °C, dark-adapted state).
For `CCCCCCC/C=C/C(=O)N1C(=O)/C(=C(/C)O)C(=O)C1CCC(=O)O` (centres unmarked), the MIC was 12.5 mg/L (K12 ΔtolC).
With `C[C@@H](O)[C@H]1C(=O)N2C(C(=O)O)=C(S[C@@H]3CN[C@H](C(=O)N(C)C)C3)[C@H](C)[C@H]12` the MIC was 8 mg/L (broth microdilution; DH5α pET28-lacUV5-VIM-2; VIM-2-producing, compound alone).
With `CC[C@H](C)[C@H](NC(=O)CNC(=O)[C@H](CC(=O)O)NC(=O)[C@H](CCCNC(=N)N)NC(=O)[C@@H](NC(=O)[C@H](CC(N)=O)NC(=O)[C@H](CCCNC(=N)N)NC(=O)CNC(=O)[C@@H](NC(=O)[C@H](CCCCN)NC(=O)[C@H](CCC(=O)O)NC(=O)[C@@H](NC(=O)[C@H](CCCCN)NC(=O)[C@H](CCCCN)NC(=O)[C@H](Cc1ccccc1)NC(=O)[C@@H](NC(=O)[C@H](CCCCN)NC(=O)[C@H](Cc1c[nH]c2ccccc12)NC(=O)[C@@H](N)CCCNC(=N)N)[C@@H](C)CC)[C@@H](C)CC)C(C)C)C(C)C)C(=O)N[C@H](C(=O)N[C@@H](CCCCN)C(=O)N[C@@H](C)C(N)=O)[C@@H](C)CC` the MIC was 16 µM (K1 ATCC 700973, Mueller-Hinton broth; 16 h, 37 °C; growth inhibition over 99%).
For `CC[C@H](C)[C@H](NC(=O)[C@H](CC(C)C)NC(=O)[C@H](CCCCN)NC(=O)[C@@H](NC(=O)[C@H](C)NC(=O)[C@H](CCC(=O)O)NC(=O)[C@H](Cc1c[nH]cn1)NC(=O)[C@@H](NC(=O)[C@H](CCCCN)NC(=O)[C@H](CCC(N)=O)NC(=O)[C@H](Cc1ccccc1)NC(=O)[C@@H](NC(=O)[C@H](CCCCN)NC(=O)[C@H](CCCCN)NC(=O)[C@H](CC(C)C)NC(=O)[C@H](C)N)C(C)C)[C@@H](C)CC)[C@@H](C)CC)C(N)=O`, the MIC was 4 µM (CLSI broth microdilution; ATCC 25922; 18 h, 37 °C).
`CCCCCCCCCC(=O)N[C@@H](Cc1c[nH]c2ccccc12)C(=O)N[C@H](CC(N)=O)C(=O)N[C@@H](CC(=O)O)C(=O)N[C@@H]1C(=O)NCC(=O)N[C@@H](CCCN)C(=O)N[C@@H](CC(=O)O)C(=O)N[C@H](C)C(=O)N[C@@H](CC(=O)O)C(=O)NCC(=O)N[C@H](CO)C(=O)N[C@@H]([C@H](C)CC(=O)O)C(=O)N[C@@H](CC(=O)c2ccccc2N)C(=O)O[C@@H]1C` gave an MIC of 180 µM (broth dilution; K12 MG1655 efflux knock-out).
The MIC of `CC1(C)SC2C(NC(=O)C(NC(=O)C3=C(O)C(Cc4ccco4)NC3=O)c3ccccc3)C(=O)N2C1C(=O)O` (centres unmarked) is reported as > 200 mg/L (broth microdilution; isolate IU 356 A, KPC-3, VIM-1, TEM; together with: clavulanic acid 6 µg/mL).
The MIC of `CC[C@H](C)[C@H](NC(=O)[C@H](CCCCN)NC(=O)[C@H](CCCCN)NC(=O)CNC(=O)[C@H](CCCCN)NC(=O)[C@H](CC(C)C)NC(=O)[C@H](CCCCN)NC(=O)[C@H](CCCNC(=N)N)NC(=O)[C@@H](NC(=O)[C@H](CC(C)C)NC(=O)[C@H](CCCNC(=N)N)NC(=O)[C@@H](N)CCCNC(=N)N)[C@@H](C)CC)C(=O)N[C@@H](Cc1ccc(O)cc1)C(=O)N[C@@H](CC(C)C)C(=O)N[C@@H](Cc1ccc(O)cc1)C(=O)N[C@@H](Cc1ccccc1)C(=O)N[C@@H](CCCCN)C(=O)N[C@@H](CC(C)C)C(=O)N[C@@H](CCC(N)=O)C(=O)N[C@@H](CC(C)C)C(=O)N[C@@H](CC(C)C)C(=O)N[C@@H](CCCCN)C(=O)N[C@@H](CCCCN)C(N)=O` is reported as 16 µM (broth microdilution; KCTC 1682, Mueller-Hinton broth; together with: NH4Cl 6 µM).
With `N=C(N)c1ccc(OCCC(CCOc2ccc(C(=N)N)cc2)c2ccccc2)cc1` (centres unmarked) the MIC was > 200 mg/L (mcr-1; 20 h, compound alone).
The MIC of `C[C@@H](O)[C@H]1C(=O)N2C(C(=O)O)=C(S[C@@H]3CN[C@H](C(=O)N(C)C)C3)[C@H](C)[C@H]12` is reported as 167 µM (NDM-1 producing; compound alone).
`CC[C@H](C)[C@H](N)C(=O)N[C@@H](CC(C)C)C(=O)NCC(=O)N[C@@H](CCC(=O)O)C(=O)N[C@H](C(=O)N[C@@H](Cc1c[nH]c2ccccc12)C(=O)N[C@@H](CCCCN)C(=O)NCC(=O)N[C@H](C(=O)N[C@@H](CCCCN)C(=O)N[C@@H](CC(=O)O)C(=O)N[C@H](C(=O)N[C@@H](CC(C)C)C(N)=O)[C@@H](C)CC)[C@@H](C)CC)[C@@H](C)CC` has an MIC of 100 µM (broth microdilution; ATCC 25922; together with: KCl 4.5 mM).
`CC[C@H](C)[C@H](NC(=O)CNC(=O)[C@H](CC(=O)O)NC(=O)[C@H](CCCNC(=N)N)NC(=O)[C@@H](NC(=O)[C@H](CC(N)=O)NC(=O)[C@H](CCCNC(=N)N)NC(=O)CNC(=O)[C@@H](NC(=O)[C@H](CCCCN)NC(=O)[C@H](CCC(=O)O)NC(=O)[C@@H](NC(=O)[C@H](CCC(=O)O)NC(=O)[C@H](CCCCN)NC(=O)[C@H](Cc1ccccc1)NC(=O)[C@@H](NC(=O)[C@H](CCCCN)NC(=O)[C@H](Cc1c[nH]c2ccccc12)NC(=O)[C@@H](N)CCCNC(=N)N)[C@@H](C)CC)[C@@H](C)CC)C(C)C)C(C)C)C(=O)N[C@H](C(=O)N[C@@H](CCCCN)C(=O)N[C@@H](C)C(=O)NCC(=O)N1CCC[C@H]1C(=O)N[C@@H](C)C(=O)N[C@H](C(=O)N[C@@H](C)C(=O)N[C@H](C(=O)N[C@H](C(=O)NCC(=O)N[C@@H](CCC(N)=O)C(=O)N[C@@H](C)C(=O)N[C@@H](C)C(=O)N[C@H](C(=O)N[C@H](C(=O)N[C@H](C(=O)N[C@@H](CCCCN)C(N)=O)C(C)C)C(C)C)[C@@H](C)O)C(C)C)C(C)C)C(C)C)[C@@H](C)CC` has an MIC of 4 µM (K1 ATCC 700973, Mueller-Hinton broth; 16 h, 37 °C; growth inhibition over 99%).
The MIC of `C[C@@H](O)[C@H]1C(=O)N2C(C(=O)O)=C(S[C@@H]3CN[C@H](C(=O)N(C)C)C3)[C@H](C)[C@H]12` is reported as < 0.09 mg/L (BL21(DE3) wild type).
The MIC of `CCCCCC(=O)N[C@@H](CCCNC(=N)N)C(=O)N[C@@H](CCCNC(=N)N)C(=O)N[C@@H](CCCNC(=N)N)C(=O)N[C@@H](CCCNC(=N)N)C(=O)N[C@H](C(=O)N[C@@H](CC(C)C)C(=O)N[C@H](C(=O)N[C@@H](CCCCN)C(=O)N[C@@H](CCCCN)C(=O)N[C@H](C(=O)N[C@@H](CC(C)C)C(=O)N[C@@H](CCCCN)C(=O)N[C@@H](CC(C)C)C(=O)N[C@@H](CCCCN)C(=O)N[C@@H](CO)C(=O)N[C@@H](CO)C(=O)N[C@@H](C)C(=O)N[C@@H](Cc1ccc(O)cc1)C(N)=O)C(C)C)[C@@H](C)CC)[C@@H](C)CC` is reported as 32 µM (checkerboard; 24 h, 37 °C, alone, azithromycin plate).
The MIC of `CN(C)c1cc(NC(=O)CNC(C)(C)C)c(O)c2c1C[C@H]1C[C@H]3[C@H](N(C)C)C(O)=C(C(N)=O)C(=O)[C@@]3(O)C(O)=C1C2=O` is reported as 0.125 mg/L (DH5a clone with KPC-136).
The MIC of `CNC(C)[C@@H]1CC[C@@H](N)[C@@H](O[C@H]2[C@H](O)[C@@H](O[C@H]3OC[C@](C)(O)[C@H](NC)[C@H]3O)[C@H](N)C[C@@H]2N)O1` (some centres unmarked) is reported as 4 mg/L (broth microdilution; 18 h).
`CC(C)C[C@H](NC(=O)[C@H](CCCCN)NC(=O)[C@H](Cc1ccccc1)NC(=O)[C@@H](NC(=O)[C@H](CCCCN)NC(=O)CNC(=O)[C@H](CC(C)C)NC(=O)[C@@H](N)Cc1ccccc1)C(C)C)C(=O)N[C@@H](C)C(=O)N[C@@H](CO)C(=O)N[C@@H](CCCCN)C(=O)N[C@H](C(=O)N[C@@H](Cc1ccccc1)C(=O)N[C@@H](CCCCN)C(=O)N[C@@H](C)C(=O)N[C@H](C(=O)N[C@@H](Cc1ccccc1)C(=O)NCC(=O)N[C@@H](CCCCN)C(=O)N[C@H](C(=O)O)C(C)C)C(C)C)C(C)C` has an MIC of 6 µM (broth dilution; K12 BW25113; 18 h, 37 °C).
`CC1NC(=O)C(C(=O)NC(C(=O)NC2C(=O)N3C2SC(C)(C)C3C(=O)O)c2ccccc2)=C1O` (centres unmarked) has an MIC of 100 mg/L (broth microdilution; Keio mutant JW0146-2; 18 h, ferric hydroxamate uptake gene).

A few entries again:
The MIC of `CCCCCC(=O)N[C@@H](CCCNC(=N)N)C(=O)N[C@@H](CCCNC(=N)N)C(=O)N[C@@H](CCCNC(=N)N)C(=O)N[C@@H](CCCNC(=N)N)C(=O)N[C@H](C(=O)N[C@@H](CC(C)C)C(=O)N[C@H](C(=O)N[C@@H](CCCCN)C(=O)N[C@@H](CCCCN)C(=O)N[C@H](C(=O)N[C@@H](CC(C)C)C(=O)N[C@@H](CCCCN)C(=O)N[C@@H](CC(C)C)C(=O)N[C@@H](CCCCN)C(=O)N[C@@H](CO)C(=O)N[C@@H](CO)C(=O)N[C@@H](C)C(=O)N[C@@H](Cc1ccc(O)cc1)C(N)=O)C(C)C)[C@@H](C)CC)[C@@H](C)CC` is reported as 32 µM (checkerboard; 24 h, 37 °C, alone, azithromycin plate).
The MIC of `CN(C)c1cc(NC(=O)CNC(C)(C)C)c(O)c2c1C[C@H]1C[C@H]3[C@H](N(C)C)C(O)=C(C(N)=O)C(=O)[C@@]3(O)C(O)=C1C2=O` is reported as 0.125 mg/L (DH5a clone with KPC-136).
The MIC of `CNC(C)[C@@H]1CC[C@@H](N)[C@@H](O[C@H]2[C@H](O)[C@@H](O[C@H]3OC[C@](C)(O)[C@H](NC)[C@H]3O)[C@H](N)C[C@@H]2N)O1` (some centres unmarked) is reported as 4 mg/L (broth microdilution; 18 h).
